Results gathered from unrelated publications.
“And” joins repeats or separate records; there may be more than shown. ± marks the error that the study gave.

O=S(=O)(NCc1ccncc1)c1ccc(C2CCCCC2)cc1  PU.1+ nuclei reduction (immunohistochemistry; CK-p25 mice male, hippocampal dentate gyrus; ip, 0.1 mg/kg daily, 2 wk; baseline: vehicle): ~47%
CC(CCC(=O)NCc1ccc(C(=O)NO)cc1)C1CCC2C3C(O)CC4CC(O)CCC4(C)C3CCC12C (stereo not drawn)  relative abundance (item: GCA; PCK rat (Pkhd1 mutant), bile; oral gavage, dose not given, 5 months; baseline: total bile acids): 11.9%
NC[C@@H](C(=O)Nc1ccc(-c2cn[nH]c2)cc1)c1ccccc1  IOP (tonometry; Macaca cyclopis, ocular normotensive; ocular, 0.1%, 52 h): 15.6 mmHg
COCCOCCOCCNC(=O)Cc1cc(CC(=O)N[C@H]2C[C@H]3C(=O)Nc4cc(OCCOCCOCCOC)cc(n4)C(=O)N4CCC[C@H]4C(=O)Nc4cc(OCCOCCOCCOC)cc(n4)C(=O)N4CCC[C@H]4C(=O)Nc4cc(OCCOCCOCCOC)cc(n4)C(=O)N3C2)cc(CC(=O)N[C@H]2C[C@H]3C(=O)Nc4cc(OCCOCCOCCOC)cc(n4)C(=O)N4CCC[C@H]4C(=O)Nc4cc(OCCOCCOCCOC)cc(n4)C(=O)N4CCC[C@H]4C(=O)Nc4cc(OCCOCCOCCOC)cc(n4)C(=O)N3C2)c1  ΔH (anion binding, ITC; water/acetonitrile 95 vol% (98.2 mol%); 298 K, added: sodium iodide): -1.46 ± 0.0478 kcal/mol
COC1CN([C@H]2CC[C@H]([C@@]3(C)Oc4c(Cl)cc(C(=O)NCc5c(SC)cc(C)[nH]c5=O)c(C)c4O3)CC2)C1  log2 fold change (RNA-seq, item: LAMA5 mouse homolog; mouse, HT-1376 xenograft, whole blood; dose not given; baseline: vehicle): 0.423
COCC1CN(C2CCN(c3cc(OC)c(Nc4ncc(Br)c(Nc5ccc6c(c5P(C)(C)=O)OCCO6)n4)cc3C)CC2)C1  partial response (RECIST 1.1; advanced EGFR-mutant NSCLC patients; 150 mg once daily): 16.7%
COc1c(Cl)cccc1Nc1c(-c2ccncc2C#C[C@@]2(C)CCCN2C(=O)/C=C/CN(C)C)[nH]c2c1C(=O)NCC2  tumour regression (CUTO14 xenograft, EGFR ASV, female NSG mice; 50 mg/kg once daily, 21 days, regression if TGI above 100 %): 81%
Cc1[nH]nc2c1N=C(c1ccccc1Cl)c1cnc(N3CCOCC3)cc1N2  tumour growth inhibition (mouse sample BB TNBC PDX; oral, 15 mg/kg, 120 h, 5 days per week): 94%
O=C([O-])CN1CCN(CC(=O)[O-])CCN(CC(O)CN(CC(O)CN2CCN(CC(=O)[O-])CCN(CC(=O)[O-])CCN(CC(=O)[O-])CC2)CC(O)C(O)C(O)C(O)CO)CCN(CC(=O)[O-])CC1.[Gd+3].[Gd+3] (stereo not drawn)  relaxivity (human plasma; 310 K, 1.41 T field): 10.8 ± 0.2 mM⁻¹ s⁻¹
CC(=O)[O-].O.O.O.O.[Ni+2].[O-]c1ccc(Br)cc1C=NCCN1CCOCC1  ferric reducing power (FRAP; 200 µM): 50.9%
O=[N][Fe]1([N]=O)[S](CCO)[Fe]([N]=O)([N]=O)[S]1CCO  serum triglycerides (aged C57BL/6JNarl mice, Western diet, serum; oral, 2.65 mg/kg daily, 16 weeks): 73 ± 13.5 mg/dL
N=C(N)NCCC[C@@H]1NC(=O)[C@H](CO)NC(=O)[C@@H](NC(=O)[C@H](CO)NC(=O)[C@H](CO)NC(=O)[C@H](Cc2c[nH]c3ccccc23)NC(=O)CNC(=O)[C@H](CO)NC(=O)[C@@H](N)Cc2c[nH]c3ccccc23)CSSC[C@@H](C(=O)NCC(=O)O)NC(=O)[C@H](CO)NC1=O  VCAM decrease (ELISA; human, older subgroup, plasma; concentration not given, day 26): ~44%
CC(C)OC(=O)[C@H](CO)NCc1cc(Cl)c(OCc2cccc(-c3ccccc3)c2Br)cc1OCc1cccnc1  tumour volume T/C (hPD-L1 MC-38 tumour, humanised hPD-1 C57BL/6 mouse; oral, 5 mg/kg × 21, day 20; baseline: vehicle): 40.8%
COc1ccccc1-c1ccncc1C(=O)Nc1nnc(OCc2ccc(Cl)cc2)s1  RAD51 foci-positive nuclei (immunofluorescence; MEFs, Mus musculus; 10 µM, 24 h pretreatment, 6 h after irradiation, added: ionising radiation 2 Gy): 29.3% and 22.7% and 24.2%
COc1ccc(NC(=O)c2ccc3[nH]c(-c4ccc(N(C)C)cc4)nc3c2)cn1  tumour volume (CT26, BALB/c nude mice, subcutaneous graft; dose not given, day 2): 69.3 mm3 and 229 mm3 and 104 mm3 and 239 mm3 and 60 mm3
Cc1cccc(C)c1CNc1cc(C(=O)N2CCC2)cn2c(C)c(C)nc12  gastric lesion area (rat, aspirin-induced ulcer; oral, 2 mg/kg, 4 h, added: aspirin 150 mg/kg): 19.3 ± 6 mm
CCCCCCCCCCCCCCCC(=O)OCC(CSC[C@H](N)C(=O)N[C@@H](CO)C(=O)N[C@@H](CCCCN)C(=O)N[C@@H](CCCCN)C(=O)N[C@@H](CCCCN)C(=O)N[C@@H](CCCCN)C(=O)NCCCCCC(=O)N[C@@H](CCCCN)C(=O)N[C@@H](CC(C)C)C(=O)N[C@H](C(=O)N[C@@H](Cc1ccccc1)C(=O)N[C@@H](Cc1ccccc1)C(=O)N[C@@H](Cc1ccc2ccccc2c1)C(=O)O)C(C)C)OC(=O)CCCCCCCCCCCCCCC (stereo partly drawn)  Iba1 level (APP/PS1 transgenic mouse, hippocampus; intrahippocampal, dose not given, 10 d, unit not given; baseline: injected over adjacent side): 1.2 and 0.525 and 0.875 and 1.47 and 1.21
COc1cc(O)ccc1CCC(c1ccc(O)cc1)c1cc2c(c(C)c1O)OC(c1ccc(O)cc1)CC2 (mixture of isomers)  LTB4 level (human blood; 30 µM, added: A23187): 13 ± 13 pg/mL
O=[N+]([O-])[O-].O=c1c(C=NN=C([S-])Nc2ccccc2)coc2ccccc12.[Cu+2].c1cnc2c(c1)ccc1cccnc12  supercoiled DNA form (oxidative DNA cleavage; supercoiled pUC19 DNA; 100 µM, 30 min, added: ascorbic acid 50 µM, DNA 40 µM): 0%
CN1CCC[C@]1(C)/C=C/S(=O)(=O)NC(=O)Nc1c2c(cc3c1CCC3)CCC2  IL-18 inhibition (human, whole blood ex vivo; 12.5 mg twice daily, day 14, 6 h, multiple ascending dose, added: LPS and ATP): 103%
COc1ccc(C(=O)CCc2cc(C(CCc3ccc(O)cc3OC)c3ccc(O)cc3)c(O)cc2OC)cc1 (racemic)  LTB4 isomers level (human blood; 3 µM, added: A23187): 546 ± 164 pg/mL

Some of these lines once more:
COc1cc(O)ccc1CCC(c1ccc(O)cc1)c1cc2c(c(C)c1O)OC(c1ccc(O)cc1)CC2 (mixture of isomers)  LTB4 level (human blood; 30 µM, added: A23187): 13 ± 13 pg/mL
O=[N+]([O-])[O-].O=c1c(C=NN=C([S-])Nc2ccccc2)coc2ccccc12.[Cu+2].c1cnc2c(c1)ccc1cccnc12  supercoiled DNA form (oxidative DNA cleavage; supercoiled pUC19 DNA; 100 µM, 30 min, added: ascorbic acid 50 µM, DNA 40 µM): 0%
CN1CCC[C@]1(C)/C=C/S(=O)(=O)NC(=O)Nc1c2c(cc3c1CCC3)CCC2  IL-18 inhibition (human, whole blood ex vivo; 12.5 mg twice daily, day 14, 6 h, multiple ascending dose, added: LPS and ATP): 103%
